Published values gathered from unrelated publications.
Each numbered part is a random draw from the data of one study; scales do not carry over between parts. Values joined by “and” are separate records of one study, mostly repeats; a detail may differ.
Chain of UniProt P51955 (whole entry, looked up): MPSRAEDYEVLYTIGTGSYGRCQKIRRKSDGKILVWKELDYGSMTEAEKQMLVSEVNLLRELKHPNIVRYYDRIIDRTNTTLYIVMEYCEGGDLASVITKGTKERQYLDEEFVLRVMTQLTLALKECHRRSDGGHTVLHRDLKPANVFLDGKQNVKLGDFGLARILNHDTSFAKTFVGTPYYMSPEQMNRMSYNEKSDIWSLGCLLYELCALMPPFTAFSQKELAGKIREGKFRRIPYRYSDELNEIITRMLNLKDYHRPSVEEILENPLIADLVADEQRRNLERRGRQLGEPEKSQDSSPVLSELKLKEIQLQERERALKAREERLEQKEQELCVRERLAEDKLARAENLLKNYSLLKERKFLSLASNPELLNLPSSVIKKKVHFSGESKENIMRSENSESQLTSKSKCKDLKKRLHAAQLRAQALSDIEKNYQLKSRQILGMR
Chain of UniProt Q16513 (whole entry, looked up): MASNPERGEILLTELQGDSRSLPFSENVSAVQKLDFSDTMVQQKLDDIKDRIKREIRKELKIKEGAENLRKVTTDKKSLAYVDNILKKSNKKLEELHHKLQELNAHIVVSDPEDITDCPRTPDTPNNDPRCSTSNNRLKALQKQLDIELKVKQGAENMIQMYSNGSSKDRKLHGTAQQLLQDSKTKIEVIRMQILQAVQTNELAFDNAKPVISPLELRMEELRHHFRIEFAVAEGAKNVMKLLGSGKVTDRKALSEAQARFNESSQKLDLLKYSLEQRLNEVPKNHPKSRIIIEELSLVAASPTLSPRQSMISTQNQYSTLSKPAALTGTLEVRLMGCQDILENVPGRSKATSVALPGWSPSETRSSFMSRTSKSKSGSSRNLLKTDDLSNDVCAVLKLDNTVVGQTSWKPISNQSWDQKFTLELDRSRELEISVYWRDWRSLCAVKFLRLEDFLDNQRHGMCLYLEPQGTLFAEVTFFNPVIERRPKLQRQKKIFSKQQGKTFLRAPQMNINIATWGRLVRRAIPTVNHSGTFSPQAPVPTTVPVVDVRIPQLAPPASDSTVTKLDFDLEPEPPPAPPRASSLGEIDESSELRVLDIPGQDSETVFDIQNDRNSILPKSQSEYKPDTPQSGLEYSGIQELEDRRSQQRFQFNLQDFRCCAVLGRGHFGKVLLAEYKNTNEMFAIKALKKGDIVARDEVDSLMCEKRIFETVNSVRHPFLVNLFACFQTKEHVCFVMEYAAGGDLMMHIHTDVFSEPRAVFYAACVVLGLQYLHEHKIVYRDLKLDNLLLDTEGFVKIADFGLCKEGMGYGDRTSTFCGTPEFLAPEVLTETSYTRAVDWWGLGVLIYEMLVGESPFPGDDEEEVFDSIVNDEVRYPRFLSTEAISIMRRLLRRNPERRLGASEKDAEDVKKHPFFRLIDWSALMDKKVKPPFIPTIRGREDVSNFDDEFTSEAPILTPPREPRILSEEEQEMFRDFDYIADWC
Chain of UniProt Q9H422 (whole entry, looked up): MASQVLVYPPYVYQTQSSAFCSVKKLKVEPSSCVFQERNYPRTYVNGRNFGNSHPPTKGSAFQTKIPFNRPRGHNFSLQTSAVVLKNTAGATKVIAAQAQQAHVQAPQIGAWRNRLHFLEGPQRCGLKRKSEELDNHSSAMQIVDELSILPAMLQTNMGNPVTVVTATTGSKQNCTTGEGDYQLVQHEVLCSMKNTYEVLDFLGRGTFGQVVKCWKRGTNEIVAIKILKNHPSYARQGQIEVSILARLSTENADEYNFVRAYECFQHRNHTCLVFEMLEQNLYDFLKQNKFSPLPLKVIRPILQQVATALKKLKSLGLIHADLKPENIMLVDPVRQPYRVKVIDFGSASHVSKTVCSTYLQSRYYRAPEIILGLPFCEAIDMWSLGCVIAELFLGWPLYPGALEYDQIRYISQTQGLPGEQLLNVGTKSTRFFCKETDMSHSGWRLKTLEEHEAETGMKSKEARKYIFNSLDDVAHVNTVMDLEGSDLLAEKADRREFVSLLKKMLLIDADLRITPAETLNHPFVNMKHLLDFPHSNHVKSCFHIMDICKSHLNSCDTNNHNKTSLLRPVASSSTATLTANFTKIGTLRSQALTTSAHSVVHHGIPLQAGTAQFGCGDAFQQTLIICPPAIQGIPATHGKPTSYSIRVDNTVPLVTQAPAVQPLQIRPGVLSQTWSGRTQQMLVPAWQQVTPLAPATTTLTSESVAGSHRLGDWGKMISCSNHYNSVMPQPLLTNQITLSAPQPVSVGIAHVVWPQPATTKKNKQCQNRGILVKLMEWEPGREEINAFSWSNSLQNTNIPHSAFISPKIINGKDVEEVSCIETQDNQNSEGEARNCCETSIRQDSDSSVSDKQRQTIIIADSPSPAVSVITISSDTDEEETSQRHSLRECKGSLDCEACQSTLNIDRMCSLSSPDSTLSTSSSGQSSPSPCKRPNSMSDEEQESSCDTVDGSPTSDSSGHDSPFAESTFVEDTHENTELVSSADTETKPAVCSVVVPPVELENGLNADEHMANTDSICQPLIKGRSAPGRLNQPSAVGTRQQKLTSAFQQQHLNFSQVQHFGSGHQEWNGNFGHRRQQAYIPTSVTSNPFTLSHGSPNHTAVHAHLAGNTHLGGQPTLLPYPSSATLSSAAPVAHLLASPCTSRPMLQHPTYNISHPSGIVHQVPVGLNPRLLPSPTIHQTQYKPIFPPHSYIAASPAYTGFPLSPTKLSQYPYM
Chain of UniProt Q15835 (whole entry, looked up): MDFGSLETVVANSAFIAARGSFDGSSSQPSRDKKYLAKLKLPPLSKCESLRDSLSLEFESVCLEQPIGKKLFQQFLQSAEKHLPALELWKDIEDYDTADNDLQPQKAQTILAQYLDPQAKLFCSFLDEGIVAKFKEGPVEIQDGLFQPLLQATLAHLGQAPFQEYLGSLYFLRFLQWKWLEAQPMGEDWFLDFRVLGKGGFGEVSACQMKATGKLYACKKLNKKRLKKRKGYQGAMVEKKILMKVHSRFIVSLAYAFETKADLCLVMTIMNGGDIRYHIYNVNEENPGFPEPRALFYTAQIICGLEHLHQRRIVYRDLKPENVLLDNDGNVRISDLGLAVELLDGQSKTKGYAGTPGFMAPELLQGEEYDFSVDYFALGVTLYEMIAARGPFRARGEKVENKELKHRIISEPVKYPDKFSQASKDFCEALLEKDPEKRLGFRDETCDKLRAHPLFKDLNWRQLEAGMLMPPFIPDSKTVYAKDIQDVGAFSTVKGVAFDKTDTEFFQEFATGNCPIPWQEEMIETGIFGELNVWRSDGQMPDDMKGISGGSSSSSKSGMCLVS
Chain of UniProt P36507 (whole entry, looked up): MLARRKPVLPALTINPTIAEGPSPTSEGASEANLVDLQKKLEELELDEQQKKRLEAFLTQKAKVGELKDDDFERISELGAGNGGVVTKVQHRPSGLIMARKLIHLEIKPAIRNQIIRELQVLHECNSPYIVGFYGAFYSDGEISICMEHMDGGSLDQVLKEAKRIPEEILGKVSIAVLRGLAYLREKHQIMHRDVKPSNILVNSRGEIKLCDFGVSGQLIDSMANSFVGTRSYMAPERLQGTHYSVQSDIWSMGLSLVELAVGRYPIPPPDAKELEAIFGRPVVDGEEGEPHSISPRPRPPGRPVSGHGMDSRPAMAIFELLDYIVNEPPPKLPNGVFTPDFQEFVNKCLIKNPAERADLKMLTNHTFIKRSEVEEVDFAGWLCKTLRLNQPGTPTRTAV
Chain of UniProt Q9UQM7 (whole entry, looked up): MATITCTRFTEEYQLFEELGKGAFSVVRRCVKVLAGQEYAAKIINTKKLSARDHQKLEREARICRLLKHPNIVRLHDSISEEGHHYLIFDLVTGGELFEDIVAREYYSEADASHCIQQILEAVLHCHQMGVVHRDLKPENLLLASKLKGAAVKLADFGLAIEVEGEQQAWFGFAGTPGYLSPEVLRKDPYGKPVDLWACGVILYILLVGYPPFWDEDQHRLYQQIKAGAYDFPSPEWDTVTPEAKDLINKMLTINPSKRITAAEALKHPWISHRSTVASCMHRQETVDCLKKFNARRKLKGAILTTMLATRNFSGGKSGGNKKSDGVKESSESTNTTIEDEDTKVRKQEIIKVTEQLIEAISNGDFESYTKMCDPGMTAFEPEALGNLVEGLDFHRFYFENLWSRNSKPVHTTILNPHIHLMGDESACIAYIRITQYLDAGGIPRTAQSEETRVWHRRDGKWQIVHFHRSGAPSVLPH

Study 1 — effect on: enzyme activity; action: inhibitor; tested at: 0.5 µM; relative to: control
Target: Macrophage colony-stimulating factor 1 receptor (CSF1R, Homo sapiens, UniProt P07333)
Chain of UniProt P07333 (whole entry, looked up): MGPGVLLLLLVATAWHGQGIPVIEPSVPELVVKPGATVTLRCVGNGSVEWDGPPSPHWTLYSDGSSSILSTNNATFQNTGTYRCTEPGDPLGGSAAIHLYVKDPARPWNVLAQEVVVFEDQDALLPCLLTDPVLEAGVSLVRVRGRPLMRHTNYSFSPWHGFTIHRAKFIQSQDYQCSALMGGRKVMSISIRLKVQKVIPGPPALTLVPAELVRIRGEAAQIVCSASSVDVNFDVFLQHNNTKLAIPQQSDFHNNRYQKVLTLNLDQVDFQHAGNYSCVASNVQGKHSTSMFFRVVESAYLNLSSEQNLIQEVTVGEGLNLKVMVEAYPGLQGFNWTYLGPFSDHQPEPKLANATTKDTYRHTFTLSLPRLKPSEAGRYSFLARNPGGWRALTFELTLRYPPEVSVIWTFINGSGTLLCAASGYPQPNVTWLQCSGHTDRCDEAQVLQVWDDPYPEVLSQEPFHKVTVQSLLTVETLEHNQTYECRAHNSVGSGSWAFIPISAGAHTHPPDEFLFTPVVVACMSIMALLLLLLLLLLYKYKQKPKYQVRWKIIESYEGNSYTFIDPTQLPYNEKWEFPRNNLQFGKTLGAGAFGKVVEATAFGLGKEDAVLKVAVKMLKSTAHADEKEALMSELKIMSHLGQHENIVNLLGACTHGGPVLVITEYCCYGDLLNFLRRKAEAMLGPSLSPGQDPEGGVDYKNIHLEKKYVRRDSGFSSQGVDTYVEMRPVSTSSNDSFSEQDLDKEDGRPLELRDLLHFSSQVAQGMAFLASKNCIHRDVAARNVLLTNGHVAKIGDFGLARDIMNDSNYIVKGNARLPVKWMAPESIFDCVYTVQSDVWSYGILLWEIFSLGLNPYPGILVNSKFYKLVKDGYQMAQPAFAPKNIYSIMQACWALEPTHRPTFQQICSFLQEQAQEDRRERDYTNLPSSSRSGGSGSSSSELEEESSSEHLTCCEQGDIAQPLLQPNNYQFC
| SMILES | remaining activity [%] |
| --- | --- |
| CC(=O)c1ccc(N2CCOCC2)cc1O | 100 |
| COc1cc(Nc2c(C#N)cnc3cc(OCCCN4CCN(C)CC4)c(OC)cc23)c(Cl)cc1Cl | 43.1 |
| Cc1cncc2cccc(S(=O)(=O)N3CCCN(C(=O)CN)C[C@@H]3C)c12 | 95.6 |
| Oc1ccc(Nc2nc(-c3ccc(Cl)cc3)cs2)cc1 | 104 |
| N#CC(=C(N)Sc1ccc(N)cc1)c1ccccc1C(F)(F)F | 101 |
| Nc1ncnc2c1cnn2-c1ccccc1 | 105 |
| Fc1ccc(-c2nc3n(c2-c2ccncc2)CCS3)cc1 | 103 |
| CC[n+]1c(/C=C/N(C)c2ccccc2)n(-c2ccccc2)c2ccc(-c3nc4ccccc4s3)cc21 | 108 |
| CSc1nc(-c2ccnc(N[C@@H](C)c3ccccc3)c2)c(-c2ccc(F)cc2)[nH]1 (racemic) | 104 |
| Cc1cc(Nc2nc(-c3ccccc3)nc3ccccc23)n[nH]1 | 33.1 |
| Cc1ccc(NC2=CC(=O)c3sc(C)nc3C2=O)cc1 | 89.9 |
| Nc1nccc(-c2c(-c3ccc(F)cc3)ncn2C2CCNCC2)n1 | 100 |
| CC#CC(=O)Nc1cc2c(Nc3ccc(F)c(Cl)c3)ncnc2cn1 | 101 |
| Nc1nc(Nc2ccc(S(N)(=O)=O)cc2)nn1C(=O)c1c(F)cccc1F | 49.2 |
| O=C1Cc2c([nH]c3ccc([N+](=O)[O-])cc23)-c2ccccc2N1 | 51 |
| CC(C)(C)n1nc(Cc2cccc3ccccc23)c2c(N)ncnc21 | 99.9 |
| NC(=O)c1ccc(N(C(N)=O)c2c(F)cccc2F)nc1-c1ccc(F)cc1F | 109 |
| COc1ccc(S(=O)(=O)N(CCO)c2ccccc2CN(C)CC=Cc2ccc(Cl)cc2)cc1 | 103 |
| O=C1NC(=O)C(c2c[nH]c3ccccc23)=C1c1c[nH]c2ccccc12 | 93.7 |
| CCc1[nH]c(-c2ccc(OC)cc2)nc1-c1ccncc1 | 100 |
| O=S(=O)(NCCNC/C=C/c1ccc(Br)cc1)c1cccc2cnccc12 | 97.7 |
| CCCC(=O)Oc1ccc2[nH]c(C(=O)c3cc4ccccc4[nH]3)cc2c1 | 103 |

Study 2 — time: 6 days; relative to: DMSO
Compound: CC(C)C[C@@H]1NC(=O)[C@@H](N(C)C(=O)[C@H](CC2CCC2)NC(=O)[C@@H]2C[C@@H](F)CN2C(=O)C2(C(F)(F)F)CC(F)(F)C2)CCCCNC(=O)C2(CC2)NC(=O)[C@H](Cc2cc(Cl)ccc2Cl)N(C)C1=O
| cell line | tested at | relative cell count |
| --- | --- | --- |
| NCI-H82 DOX-inducible E2F1 WT, no doxycycline | 200 nM | 0.976 and 0.895 and 0.604 |
| Jurkat DOX-inducible E2F1 WT, no doxycycline | 20 nM | 0.863 and 0.898 and 0.829 |
| Jurkat DOX-inducible E2F1 WT, no doxycycline | 200 nM | 0.622 and 0.389 and 0.671 |
| Jurkat DOX-inducible E2F1 WT, no doxycycline | 600 nM | 0.309 and 0.308 and 0.403 |
| NCI-H82 DOX-inducible E2F1 WT, no doxycycline | 60 nM | 1.07 and 0.83 and 1.17 |
| NCI-H82 DOX-inducible E2F1 WT, with doxycycline | 600 nM | 0.289 and 0.256 and 0.417 |
| NCI-H82 DOX-inducible E2F1 WT, with doxycycline | 2 µM | 0.0669 and 0.0622 and 0.0921 |
| NCI-H82 DOX-inducible E2F1 WT, with doxycycline | 20 nM | 1 and 0.972 and 0.978 |

Study 3 — effect on: enzyme activity; tested at: 5 µM
SMILES: O=C(Nc1cnn(-c2csc(C(=O)NC3COC3)c2)c1)Nc1c(F)cccc1Cl
| target | action | relative to | remaining activity [%] |
| --- | --- | --- | --- |
| MAP2K2 (Homo sapiens, UniProt P36507) | – | untreated control | 87.9 |
| SBK1 (Homo sapiens, UniProt Q52WX2) | inhibitor | – | 97.7 |
| CAMK2A (Homo sapiens, UniProt Q9UQM7) | – | untreated control | 98.5 |
| GRK1 (Homo sapiens, UniProt Q15835) | – | untreated control | 92.7 |
| SLK (Homo sapiens, UniProt Q9H2G2) | – | untreated control | 94.6 |
| HIPK3 (Homo sapiens, UniProt Q9H422) | – | untreated control | 96.6 |
| MAST3 (Homo sapiens, UniProt O60307) | inhibitor | – | 108 |
| PKN2 (Homo sapiens, UniProt Q16513) | – | untreated control | 105 |
| NEK2 (Homo sapiens, UniProt P51955) | – | untreated control | 93.3 |
| RIPK4 (Homo sapiens, UniProt P57078) | inhibitor | – | 96.7 |

Study 4 — cell line: A-375; tested at: 100 µM; time: 36 h
| Structure (SMILES) | viability [%] |
| --- | --- |
| COc1ccc(C(Cl)=C(c2ccc(OC)cc2)c2ccc(OC)cc2)cc1 | 84.3 |
| CN1[C@@H]2CC[C@H]1C[C@@H](OC(=O)c1c[nH]c3ccccc13)C2 | 94.4 |
| CCOc1cc([C@@H](CS(C)(=O)=O)N2C(=O)c3cccc(NC(C)=O)c3C2=O)ccc1OC | 97.3 |
| CC(C)OC(=O)C(C)(C)Oc1ccc(C(=O)c2ccc(Cl)cc2)cc1 | 75.2 |
| C[C@@H]1O[C@@H]1P(=O)(O)O | 89.6 |
| CC(=O)c1ccc(O)c(C(=O)O)c1 | 97.3 |
| CN(C)CCOC(C)(c1ccccc1)c1ccccn1 (stereo not drawn) | 6.72 |
| CC(=O)O[C@]1(C(C)=O)CC[C@H]2[C@@H]3C=C(C)C4=CC(=O)CC[C@]4(C)[C@H]3CC[C@@]21C | 42.3 |
| CCCc1nc(C(C)(C)O)c(C(=O)OCc2oc(=O)oc2C)n1Cc1ccc(-c2ccccc2-c2nnn[nH]2)cc1 | 96.5 |
| O=C(O)c1cc(O)c(O)c(O)c1 | 7.7 |
| CS(=O)(=O)OCCCCOS(C)(=O)=O | 98.1 |
